Measurements collected from several papers.
Each numbered part is a random draw from the data of one study; scales do not carry over between parts. Substitutions count along the parent as printed.

Series 1 — method: RNA Bind-n-Seq; molecule type: RNA; medium: in vitro; tested at: not given; relative to: input RNA pool; direction: higher = stronger binding
Target: RING finger protein unkempt homolog, zinc fingers 1-6, GST-SBP tag (UNK, Homo sapiens, UniProt Q9C0B0, residues 30-357)
Notes: RNA with constant flanks, human-mouse chimeric sites, ends assumed
Construct (chain): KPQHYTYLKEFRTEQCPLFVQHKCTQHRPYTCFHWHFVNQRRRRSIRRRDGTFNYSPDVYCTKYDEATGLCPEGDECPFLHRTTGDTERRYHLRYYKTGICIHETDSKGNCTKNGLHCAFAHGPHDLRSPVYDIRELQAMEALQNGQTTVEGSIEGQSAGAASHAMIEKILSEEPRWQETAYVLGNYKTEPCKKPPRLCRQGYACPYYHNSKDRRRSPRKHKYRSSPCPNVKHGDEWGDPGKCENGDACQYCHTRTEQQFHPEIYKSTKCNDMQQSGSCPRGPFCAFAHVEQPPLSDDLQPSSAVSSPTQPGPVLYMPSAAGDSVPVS
With `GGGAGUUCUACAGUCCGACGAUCAAAGAGAAACUAAAGCAAACUGAUUGAAAGAGGAUUGGCAAAGAGAAUUUCAUAGAGAAACUAGGAUUUAUUAGCAAACAUGAGUUAUAUUCCAGAGGCAUCUCAGAACCCCAGCCAAACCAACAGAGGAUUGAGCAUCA` the bound/input enrichment was 9.92 ratio.
`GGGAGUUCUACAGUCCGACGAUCUGUGAACUGUCUCUUGAGAUCUAAAAACAAGAUGACUUUUCCUGGCACAUAUUCCAAAGCAUAGACUUUGUUGCCUGCUGCUUAUUGUCUAAUUUACAGGGAUAUUUAAUUUUGUCAGGUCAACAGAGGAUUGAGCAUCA` has a bound/input enrichment of 0.234 ratio.
`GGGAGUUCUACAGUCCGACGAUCAAUUUCCUGUCAUACUUUGUAGCAAGACACAUCAGACUUACAGAGCACCUGGCCACAUUCUAGUUUUGUGUUAUUUCUCAGCUAUGGAUAUGAUCAAAUGAGAACACUGCUUAACUAAUGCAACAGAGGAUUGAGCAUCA` has a bound/input enrichment of 0.196 ratio.
`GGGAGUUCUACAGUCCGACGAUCCAGGGCACAGCACCUACCCCCUCCUCCUUUCCACACCUGCAAACUCUUUUACUUGGGCUGAAUAUUUAGUGUAAUUACAUCUCAGCUUUUGAGGGCUCUGUGGCAAAUUCCCGGAUUAAACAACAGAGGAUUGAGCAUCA` has a bound/input enrichment of 1.1 ratio.
`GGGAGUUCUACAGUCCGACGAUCGCUCCUCCCCGCUCUGCAGCCUGGGGACUUUUGGCAAGGACCAGAAUCUUAUUUUUUUUUAAAACUCUCAGUGUAACUGUAUCCCGUGACAUUUCAUUUUUUUUAAAUAGUGUAUUUUUUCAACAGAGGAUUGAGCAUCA` has a bound/input enrichment of 8.07 ratio.
The bound/input enrichment of `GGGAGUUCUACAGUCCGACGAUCAGCACAACCCCAGCAAAGCUAAGAAAUCCUUGUACAAGUGAACAGAACUGCACCAGCCCAUUUAGCUACAAAAAUGUGCUUAGUCUUACUAAUAAAGGAGAGUUUUUCAAUGAACUUGUUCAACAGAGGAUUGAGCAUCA` is reported as 0.91 ratio.
`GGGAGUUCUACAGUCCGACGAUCUGACAAGCACGAGCAUCAGCCAUGCCUUUCCUUGACAUACAGAAAAAGUUCGGCCUUAGCCUGGACCGGCACUUUAUGUUCCUAAGCGCAGAACAGCCCUAUAAGAACGCCGCUCGGUGCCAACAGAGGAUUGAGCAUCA` has a bound/input enrichment of 0.0962 ratio.
The bound/input enrichment of `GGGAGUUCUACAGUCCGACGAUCAUCAAAUAUUUUGGGGACAUCAUUAGUGUGGGACAGAGACUGUUGCAAGGAGCUCGGAUCUUAGGGAUUCCAGUUAUCAUAACGGAACAAUACCCCAAAGGACUUGGCAGCACCGUUCAACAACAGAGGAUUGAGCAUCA` is reported as 0.211 ratio.
For `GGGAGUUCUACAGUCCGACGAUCCACAGAGCAGCACCUACCUCCUCCUUCUUUCCACACCUGCAAACUCUUUUACUUGGGCUGCAUAGUUAGUGUAAUUACAUCUCAGCUUUGAGGGCUCCUGUGGCAAAUUCCCGGAUUAAACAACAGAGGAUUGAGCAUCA`, the bound/input enrichment was 1.88 ratio.
The bound/input enrichment of `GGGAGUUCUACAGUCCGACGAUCACUCAGAGAUCCACCUCCCAAAGUGCUGGGAGUAAAGGUGUGGCCACCACACCUAACUUCAUAGACAUAUAUUUUUUCUCUUUUAUGUCUUCCUGUUCGUCCAGGGAAGAAAGAUUUGUUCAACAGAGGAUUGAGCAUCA` is reported as 1.75 ratio.
`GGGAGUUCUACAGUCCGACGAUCCCCCAAUACCAUUUGCAGGUCUGGAACCUGCAUUCUUUUUUUAAAAAAUAUGCAUAUAUUUUAGGGCUGUAGAUUUAUUUUCCUGGUUUUGUUUUUCAUUGCUGACUUUUGAGCACAGAACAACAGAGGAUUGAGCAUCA` has a bound/input enrichment of 0.689 ratio.

Series 2 — method: RNA Bind-n-Seq; molecule type: RNA; medium: in vitro; tested at: 365 nM; relative to: no-protein control; direction: higher = stronger binding
Target: RNA binding protein fox-1 homolog 2, RRM domain, GST-SBP tag (RBFOX2, Homo sapiens, UniProt O43251-10, residues 100-194)
Notes: natural RNA segment, single round, ends assumed
Residues (chain): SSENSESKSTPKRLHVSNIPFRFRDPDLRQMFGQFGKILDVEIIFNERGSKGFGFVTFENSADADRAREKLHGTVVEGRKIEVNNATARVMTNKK
`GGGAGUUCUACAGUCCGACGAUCCUCCUUCUGUCUCGGUUUGUGUCCCUUUCAUUCCCUUUUAGUAUUUGCAAGAGGAAAAUUGUCUGUGUUUUAAUCAGCUAAUGAGGAGGCUAUGGGAUGGACAGAGGGCUUGGAAUUCUCGGGUGCCAA` — result for “RBNS enrichment (R)”: 5.24.
For `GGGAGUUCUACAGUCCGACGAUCGGUGCCUCAGUGUUGGCCAAACUCUGGAGUCACUGACUGGUUUGACUUUCAUGUGGUAAAUAUGCAUUUGGUCUGUACUGAUCAUGGAAUAAACACAUCUCUCUUUUUUAUGGAAUUCUCGGGUGCCAA`, “RBNS enrichment (R)” read 0.257.
`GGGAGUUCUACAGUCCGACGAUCUGACUUUUGAAUUACAGAGAUAUAAAUGAAGUAUUAUCUGUAAAAAUUGUUAUAAUUAGAGUUGUGAUACAGAGUAUAUUUCCAUUCAGACAAUAUAUCAUAACUUAAUAUGGAAUUCUCGGGUGCCAA` — result for “RBNS enrichment (R)”: 0.552.
Under “RBNS enrichment (R)”, `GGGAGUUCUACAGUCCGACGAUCGACGCUCUCAUUAAAAUCUAUGCAGCCAAGCUCGGCACUUUGUAGCAGCCGGCCUUGCGAAGCCUCCUCAGCUCGGGGGGCCGGGGACCCAGUGAGCCGAGAGGCCCUCUUGGAAUUCUCGGGUGCCAA` is recorded as 0.833.
`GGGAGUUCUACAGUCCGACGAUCGCAUGCCACAAGUUAAAGGUCACCUUCCUGAAAGAUGAAUGAGAAAGCUGCCCAUUCUCAAGACUCAUCUGCCUAGGGAGGGUCACAGAGGCAGGAUGUAAGACACACUGUGGAAUUCUCGGGUGCCAA` — result for “RBNS enrichment (R)”: 1.
For `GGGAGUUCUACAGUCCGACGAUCCGUUCAAGUUCUAGUGAGCAACAUGUUCAACAACCGCCAGCACAGCAACCUGGCCAGCCUGAGGUCUUCCAGGAGAUGCUGUCCAUGCUGGGAGAUCAGAGCAACAGCUAUGGAAUUCUCGGGUGCCAA`, “RBNS enrichment (R)” read 0.266.
`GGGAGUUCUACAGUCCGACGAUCUGCAAUUAAGGUUGAUUACUUAUAAAUAUGAACUUUGGAUCACUGUAUAGACUGUUAAAUUUGAUUUCUUAUUACCUAUUGUUAAAUAAACUGUGUGAGACAGACACCUGUGGAAUUCUCGGGUGCCAA` — result for “RBNS enrichment (R)”: 0.728.
`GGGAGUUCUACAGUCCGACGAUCCACACGUGCACAUUCCUCCCUUACAUGCUCAUUUGUGCCUUAAAUGUGCCUUAUAGGUAAAUCCAGGAUGACUGAGGAAUCCCUCGUCACUGGGAGAUUUUGUAUAUAUUUGGAAUUCUCGGGUGCCAA` — result for “RBNS enrichment (R)”: 0.484.
`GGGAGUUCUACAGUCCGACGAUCAUCACAAGGAUAAUAGAGUAGCCUAAAAUUACUAUUCUUGGUUCUUAUUUAAGUAUGGAAUAUUCAUUUUACUCAGAAUAGCUGUUUUGUGUAUAUUGGUGUAUAUUAUAUGGAAUUCUCGGGUGCCAA` — result for “RBNS enrichment (R)”: 0.32.

Series 3 — target: CCNB2, cyclin fold, Cln2 fusion (human); method: yeast growth competition, sequencing; medium: yeast; notes: weak parent motif; relative to: not given; direction: higher = stronger binding
Starting sequence: SGO1 docking peptide (human); PLAKRALKYTDEK
`PLAKAALKYTDEK [R5A]` — result for “normalised enrichment score”: -0.123.
For `PLAARALKYTDEK [K4A]`, “normalised enrichment score” read 0.176.
For `PLAKRALKATDEK [Y9A]`, “normalised enrichment score” read 0.372.
`PLAKRALAYTDEK [K8A]`: “normalised enrichment score” 0.692.
Under “normalised enrichment score”, `PLAKRALKYTDEA [K13A]` is recorded as -0.0691.
`PLAKRALKYTAEK [D11A]` — result for “normalised enrichment score”: 0.575.

Series 4 — method: competition protein-binding microarray; molecule type: double-stranded DNA, one strand shown; medium: in vitro; tested at: 2 µM; together with: Pho4 competitor, 0.05 µM; direction: higher = stronger binding
Target: Centromere-binding protein 1, full length, His-tagged (CBF1, Saccharomyces cerevisiae, UniProt P17106, residues 1-351)
Sequence of UniProt P17106 (whole entry, looked up): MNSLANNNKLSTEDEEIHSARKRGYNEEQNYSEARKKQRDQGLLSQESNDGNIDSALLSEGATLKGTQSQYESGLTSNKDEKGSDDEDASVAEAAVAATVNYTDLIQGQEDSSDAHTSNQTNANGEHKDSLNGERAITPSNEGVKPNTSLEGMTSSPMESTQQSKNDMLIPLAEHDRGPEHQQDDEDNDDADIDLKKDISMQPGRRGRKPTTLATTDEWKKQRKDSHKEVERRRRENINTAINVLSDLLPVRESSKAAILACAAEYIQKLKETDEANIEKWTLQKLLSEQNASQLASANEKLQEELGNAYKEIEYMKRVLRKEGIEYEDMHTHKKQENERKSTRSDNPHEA
Notes: whole 60-bp probe, lowest competitor level
`ACCATGGTGCGAAGTTGCATGACAACCCGGACGAATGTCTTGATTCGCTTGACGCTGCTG` has a fluorescence intensity of 65.3 a.u.
For `TGGCGGTTAGTCCTCTGCGTGATGGATCGTTGTAATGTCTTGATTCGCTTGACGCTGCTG`, the fluorescence intensity was 75.5 a.u.
For `AAAGCGGTAATTTGTCACATTACTTCACATATCTATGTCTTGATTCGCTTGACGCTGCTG`, the fluorescence intensity was 118 a.u.
The fluorescence intensity of `AATATCCTCAACCTACACGTCTTCACCATCAGTACCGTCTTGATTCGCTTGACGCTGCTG` is reported as 77.4 a.u.
The fluorescence intensity of `GTCTTGTCTCATTGTCACTATACTTTCCCCACTTCAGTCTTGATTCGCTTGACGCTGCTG` is reported as 83.5 a.u.
For `CCGGTGTTGCCCCATTCCGTGGGTATATCAGAGAGCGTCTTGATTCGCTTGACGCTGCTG`, the fluorescence intensity was 66 a.u.
`AAATTACTAAGTTGCTGAGTGGGTGACGCCGTATGAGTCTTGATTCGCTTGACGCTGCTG` has a fluorescence intensity of 71.7 a.u.
The fluorescence intensity of `AAAATATTCATTTTGCACGTTTCAATGCTTGACAGAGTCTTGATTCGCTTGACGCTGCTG` is reported as 162 a.u.
`AAAGCGGTAATTTGTCACCTGACTTCACATATCTATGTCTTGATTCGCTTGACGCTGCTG` gave a fluorescence intensity of 2170 a.u.
With `CATTAGTTTTTTACCTGTGTGACGGTTATACATAACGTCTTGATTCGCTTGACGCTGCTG` the fluorescence intensity was 107 a.u.
The fluorescence intensity of `TGCAAATATCGAAAGCACGTTTTTACTCAGCCCGTCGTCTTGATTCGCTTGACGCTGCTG` is reported as 273 a.u.
With `CTTCTGTAAATTTGTCACAGAACTTGACGCGCCCCGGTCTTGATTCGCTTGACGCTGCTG` the fluorescence intensity was 86 a.u.
`GTATGCCTAAGGAAGCATGTGACAGGTATGCCCACTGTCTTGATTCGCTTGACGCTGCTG` gave a fluorescence intensity of 833 a.u.
`ATATACTCTTTGGTGCACATGCAGGGATGGTTCCGGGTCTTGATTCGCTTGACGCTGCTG` gave a fluorescence intensity of 145 a.u.
For `ACTTTTTCCACTACTCTCGTGGCCGGGAAGACCTGCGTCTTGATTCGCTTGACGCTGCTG`, the fluorescence intensity was 62.5 a.u.
`GGCCCAATGGAGCGTCACACTTTTAAACTTTCTAAAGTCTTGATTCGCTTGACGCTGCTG` gave a fluorescence intensity of 89.8 a.u.
The fluorescence intensity of `CTTCTGCTATGGATGCACGTGAACGCTCTATTCAACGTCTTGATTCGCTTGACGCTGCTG` is reported as 1660 a.u.
With `ATAGAAATGGGTAGCCTTGTGACGGTGGATAATTCTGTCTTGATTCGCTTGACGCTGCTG` the fluorescence intensity was 98.4 a.u.
